Experimental data pooled from the literature.
“And” joins repeats or separate records; there may be more than shown. pEC50: −log10 of the molar value.

`CS(=O)(=O)CCNCc1nc(-c2ccc3ncnc(Nc4ccc(OCc5cccc(C(F)(F)F)c5)cc4)c3c2)cs1` gave a selectivity of > 1.5 (Trypanosoma brucei; unit not given; baseline: pEC50 T. brucei minus pTC50 HepG2).
For `Cn1cc(-c2ccc(-c3cncc(Cl)c3N3CCC4(CCNC4=O)CC3)cc2)cn1`, “log2 fold change” read 2.53 (COLO 205; gene expression, microarray, measured: IFIT1 mRNA; concentration not given, 6 h; baseline: untreated cells).
The maximal activity of `Cc1ccccc1OCCn1cnc2cc([N+](=O)[O-])ccc2c1=O` is reported as 24% (Mus musculus; gene silencing, high-content imaging; LDR reporter GFP cells; retest run 2).
`c1coc(-c2n[nH]cc2-c2ccnc3ccccc23)c1` — result for “log2 fold change”: -0.07 (AKL1 (Candida albicans); kinase binding, MIB/MS competition; Candida albicans lysate; 10 µM; baseline: DMSO).
`CC(C)n1ncc2c(C(=O)NCC3(C)CNC3)cc(C3CC3)nc21` has a plaque reduction of 31.3% and 41.2% (Enterovirus A71; viral replication; Tainan/4643/1998; 900 nM).
For `O=C(c1ccc(C2CCCCC2)cc1)N1CC(O)C1`, the hepatic clearance was 3.9 mL/min/kg (liver microsome stability; human liver microsomes; 1 µM, without NADPH).
`Oc1ccccc1-c1n[nH]cc1-c1ccnc2ccccc12` — result for “log2 fold change”: -0.11 (CTK1 (Candida albicans); kinase binding, MIB/MS competition; Candida albicans lysate; 10 µM; baseline: DMSO).
`CC1=C(C(=O)Nc2ccc3[nH]ncc3c2)C(c2ccc(Cl)c(Cl)c2)CC(=O)N1` (centres unmarked) gave a selectivity of > 0.6 (Trypanosoma brucei; unit not given; baseline: pEC50 T. brucei minus pTC50 HepG2).
`CC(C)C[C@@H](C=O)NC(=O)[C@H](CC(C)C)NC(=O)[C@H](CC(C)C)NC(=O)OCc1ccccc1` gave a pEC50 of 5.25 (Mus musculus; gene silencing, high-content imaging; LDR reporter GFP cells; confirmation, mean of two runs).
`CC(C)NCC(O)c1ccc(O)c(O)c1` (centres unmarked) gave a sarcomere length of 1.71 µm (ventricular cardiomyocytes, C57BL/6 mouse; dose not given, 0.78 s).
For `Nc1nonc1-c1nc2cnccc2n1C1CCCCC1`, the selectivity was 1.6 (Trypanosoma brucei; unit not given; baseline: pEC50 T. brucei minus pTC50 HepG2).
The hepatic clearance of `O=C(Cc1cccnc1)Nc1ccc([C@H]2[C@@H](F)[C@@H](F)C[C@@H](F)[C@H]2F)cc1` is reported as 3.9 mL/min/kg (human liver microsomes; 1 µM, without NADPH).
The selectivity of `COc1cc2ncn(-c3cc(O[C@H](C)c4ccccc4Cl)c(C(N)=O)s3)c2cc1OC` is reported as 2.5 (Trypanosoma brucei; unit not given; baseline: pEC50 T. brucei minus pTC50 HepG2).
`CCN(CC)C(=S)SSC(=S)N(CC)CC` has a maximal activity of 130% (Mus musculus; gene silencing, high-content imaging; LDR reporter GFP cells; retest run 1).

For quick reference, copied from above:
For `O=C(c1ccc(C2CCCCC2)cc1)N1CC(O)C1`, the hepatic clearance was 3.9 mL/min/kg (liver microsome stability; human liver microsomes; 1 µM, without NADPH).
`Oc1ccccc1-c1n[nH]cc1-c1ccnc2ccccc12` — result for “log2 fold change”: -0.11 (CTK1 (Candida albicans); kinase binding, MIB/MS competition; Candida albicans lysate; 10 µM; baseline: DMSO).
